Published values from different studies.
Compare with care: the assays were run in different laboratories. ± marks the error that the study gave.
Target: Alpha-glucosidase MAL12 (MAL12, Saccharomyces cerevisiae S288c, UniProt P53341)
Sequence of UniProt P53341 (whole entry, looked up): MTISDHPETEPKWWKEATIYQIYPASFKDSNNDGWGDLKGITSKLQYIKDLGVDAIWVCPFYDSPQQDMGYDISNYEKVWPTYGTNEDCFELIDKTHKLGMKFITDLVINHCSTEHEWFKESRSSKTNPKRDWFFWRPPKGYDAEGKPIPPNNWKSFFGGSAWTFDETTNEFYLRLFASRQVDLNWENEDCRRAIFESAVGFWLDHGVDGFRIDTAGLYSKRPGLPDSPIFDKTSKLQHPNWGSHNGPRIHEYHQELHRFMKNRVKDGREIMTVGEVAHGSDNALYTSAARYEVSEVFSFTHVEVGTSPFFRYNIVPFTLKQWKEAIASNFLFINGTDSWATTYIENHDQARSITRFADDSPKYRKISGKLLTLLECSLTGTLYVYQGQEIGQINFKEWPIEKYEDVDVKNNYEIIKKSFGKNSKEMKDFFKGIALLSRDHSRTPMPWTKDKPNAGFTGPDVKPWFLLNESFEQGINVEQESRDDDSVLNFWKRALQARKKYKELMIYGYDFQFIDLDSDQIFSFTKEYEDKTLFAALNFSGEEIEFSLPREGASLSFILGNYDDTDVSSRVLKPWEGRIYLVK
Observed: enzyme activity
Action: inhibitor

Compound	system	conditions	IC50
CC(C)(COC(=O)/C=C/c1c(Cl)cccc1Cl)CC1=C(O)C(=O)c2ccccc2C1=O			19.3 µM
Cc1nc2ccc(Br)cc2c(=O)n1N	Saccharomyces cerevisiae	with: 4-nitrophenyl glucopyranoside	23.6 ± 1.41 µM
COc1ccc(-c2c(C(F)(F)F)oc3c(Cn4nc(C)cc4C)c(O)ccc3c2=O)cc1			21.2 ± 0.66 µM
CC(C)(COC(=O)/C=C/c1ccc(Br)cc1)CC1=C(O)C(=O)c2ccccc2C1=O			26.3 µM
COc1cc(C(c2c(O)c3ccccc3oc2=O)c2c(O)c3ccccc3oc2=O)ccc1OCc1cn(CC(=O)Nc2ccc(Cl)cc2Cl)nn1			6 µM
Cc1nc2ccccc2c(=O)n1N	Saccharomyces cerevisiae	with: 4-nitrophenyl glucopyranoside	59.9 ± 2.12 µM
COc1cc(C(c2c(O)c3ccccc3oc2=O)c2c(O)c3ccccc3oc2=O)ccc1OCc1cn(CC(=O)Nc2ccccc2Cl)nn1			24.3 µM
COc1ccc(-c2c(C(F)(F)F)oc3c(Cn4ccnc4)c(O)ccc3c2=O)cc1			20 ± 2 µM
